Measured values of several laboratories.
Compare with care: the assays were run in different laboratories. ± marks the error that the study gave.
OPRL1: Nociceptin receptor (OPRL1, Homo sapiens, UniProt P41146)
dfrA: Dihydrofolate reductase (dfrA, Bacillus anthracis, UniProt Q81R22)
PKG: cGMP-dependent protein kinase (PKG, Plasmodium falciparum, UniProt Q8I719)

The chains behind the UniProt entries cited, without tags or fusion partners. A line that says so, or that is headed by a name, gives the form on record, which may keep a tag or linker. Residues count along the entry.
UniProt P41146, whole entry: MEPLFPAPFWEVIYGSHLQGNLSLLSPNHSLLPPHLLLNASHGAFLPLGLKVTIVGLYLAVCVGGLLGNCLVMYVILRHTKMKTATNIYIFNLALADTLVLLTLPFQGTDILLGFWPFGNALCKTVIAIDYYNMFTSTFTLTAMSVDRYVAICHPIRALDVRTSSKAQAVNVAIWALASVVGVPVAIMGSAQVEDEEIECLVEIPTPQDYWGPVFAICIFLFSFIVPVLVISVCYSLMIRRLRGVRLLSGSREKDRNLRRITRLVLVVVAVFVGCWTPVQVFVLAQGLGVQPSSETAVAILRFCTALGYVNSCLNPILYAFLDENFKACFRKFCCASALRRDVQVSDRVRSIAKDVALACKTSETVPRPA
UniProt Q8I719, whole entry: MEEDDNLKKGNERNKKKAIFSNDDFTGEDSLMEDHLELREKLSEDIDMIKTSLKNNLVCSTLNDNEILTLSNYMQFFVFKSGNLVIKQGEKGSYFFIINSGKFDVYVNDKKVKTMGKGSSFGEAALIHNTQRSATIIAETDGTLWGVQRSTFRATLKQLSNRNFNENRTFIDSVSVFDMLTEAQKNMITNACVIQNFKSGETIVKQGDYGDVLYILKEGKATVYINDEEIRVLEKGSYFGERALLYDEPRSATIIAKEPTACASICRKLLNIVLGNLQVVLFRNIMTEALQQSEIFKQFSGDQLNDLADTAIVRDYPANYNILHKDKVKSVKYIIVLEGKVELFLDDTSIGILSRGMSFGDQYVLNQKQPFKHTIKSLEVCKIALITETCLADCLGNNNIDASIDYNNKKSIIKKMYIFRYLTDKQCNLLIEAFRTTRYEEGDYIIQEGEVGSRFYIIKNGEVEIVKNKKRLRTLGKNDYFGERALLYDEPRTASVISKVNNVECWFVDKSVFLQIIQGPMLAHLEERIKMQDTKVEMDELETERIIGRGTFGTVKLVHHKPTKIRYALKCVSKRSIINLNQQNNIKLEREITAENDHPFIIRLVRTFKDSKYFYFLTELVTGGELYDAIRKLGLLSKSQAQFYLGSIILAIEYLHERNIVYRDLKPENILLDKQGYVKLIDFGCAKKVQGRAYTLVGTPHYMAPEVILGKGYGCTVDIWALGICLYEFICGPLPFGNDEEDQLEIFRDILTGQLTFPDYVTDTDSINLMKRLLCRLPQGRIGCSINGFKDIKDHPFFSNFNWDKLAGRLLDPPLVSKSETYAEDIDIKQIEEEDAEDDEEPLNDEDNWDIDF
UniProt P08510, 1-655 with tags or gaps DEL6-46: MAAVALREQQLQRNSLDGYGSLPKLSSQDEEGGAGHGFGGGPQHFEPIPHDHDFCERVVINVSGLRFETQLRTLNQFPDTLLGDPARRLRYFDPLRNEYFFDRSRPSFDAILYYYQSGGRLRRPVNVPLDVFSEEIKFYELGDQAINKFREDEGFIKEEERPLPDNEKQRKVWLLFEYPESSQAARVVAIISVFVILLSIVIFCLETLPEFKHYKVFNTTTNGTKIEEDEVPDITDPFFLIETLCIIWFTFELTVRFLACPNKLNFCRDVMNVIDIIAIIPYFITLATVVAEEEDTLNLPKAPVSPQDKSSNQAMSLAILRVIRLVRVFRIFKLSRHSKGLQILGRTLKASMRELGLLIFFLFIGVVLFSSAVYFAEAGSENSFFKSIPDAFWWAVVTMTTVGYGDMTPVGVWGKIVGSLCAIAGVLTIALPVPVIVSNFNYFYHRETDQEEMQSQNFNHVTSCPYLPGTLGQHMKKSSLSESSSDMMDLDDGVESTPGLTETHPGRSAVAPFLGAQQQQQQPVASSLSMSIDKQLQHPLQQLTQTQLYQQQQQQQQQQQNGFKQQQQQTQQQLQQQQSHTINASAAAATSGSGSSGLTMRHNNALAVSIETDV
UniProt Q16762, whole entry: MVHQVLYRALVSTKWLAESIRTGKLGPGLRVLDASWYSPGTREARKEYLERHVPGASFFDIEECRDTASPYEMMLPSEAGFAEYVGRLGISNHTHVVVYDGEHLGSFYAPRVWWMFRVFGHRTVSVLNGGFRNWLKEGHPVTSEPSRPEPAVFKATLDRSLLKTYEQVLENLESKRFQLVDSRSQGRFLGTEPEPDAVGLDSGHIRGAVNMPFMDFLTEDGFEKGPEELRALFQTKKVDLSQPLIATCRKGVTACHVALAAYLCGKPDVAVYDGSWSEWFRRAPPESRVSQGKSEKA
UniProt Q9JKC1, 24-597 limits assumed: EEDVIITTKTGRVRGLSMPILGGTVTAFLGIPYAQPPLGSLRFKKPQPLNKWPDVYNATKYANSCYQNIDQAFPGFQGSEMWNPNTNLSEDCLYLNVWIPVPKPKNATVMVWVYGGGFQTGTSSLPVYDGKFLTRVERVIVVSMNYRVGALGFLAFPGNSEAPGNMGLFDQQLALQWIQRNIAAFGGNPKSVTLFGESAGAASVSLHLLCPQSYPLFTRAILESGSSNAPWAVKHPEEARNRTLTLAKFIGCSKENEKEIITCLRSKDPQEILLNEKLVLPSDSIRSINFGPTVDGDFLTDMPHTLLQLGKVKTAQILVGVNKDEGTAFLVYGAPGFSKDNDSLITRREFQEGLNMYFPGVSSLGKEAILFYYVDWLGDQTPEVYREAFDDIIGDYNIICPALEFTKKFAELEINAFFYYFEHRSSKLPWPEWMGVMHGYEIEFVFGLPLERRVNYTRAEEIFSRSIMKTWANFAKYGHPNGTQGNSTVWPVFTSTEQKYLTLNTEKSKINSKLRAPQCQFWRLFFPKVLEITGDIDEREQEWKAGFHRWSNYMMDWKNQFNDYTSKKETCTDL

Structure (SMILES)	tested on	assay	test system	conditions	how to read	quantity	result
CNC(=O)CC1C(=O)N(C2CCN([C@H]3CC[C@@H](C(C)C)CC3)CC2)c2ccccc21 (stereo partly drawn)	OPRL1	binding	–	–	–	Ki	1.13 nM
CCC(CC)C1c2ccccc2C=NN1C(=O)/C=C/c1cc(Cc2cnc(N)nc2N)cc(OC)c1OC (racemic)	dfrA	inhibitor	–	–	–	Ki	12.5 nM
CN1C(=O)CCc2cc(C(=O)NCC=CS(C)(=O)=O)ccc21	Polyprotein P1234, nsP2 protease (Chikungunya virus, UniProt Q5XXP4)	time-dependent inhibition	–	–	–	Ki	2200 ± 400 nM
Cc1ccc(S(=O)(=O)Nc2cccc(C(=O)NC3CCN(c4ncnc5[nH]cnc45)CC3)c2)cc1Cl	SARS-CoV-2	–	Wuhan-Hu-1	0.01016 µM	reference: untreated infected cells	relative infection	88.6%
CC[C@H](C)[C@H](NC(=O)[C@H](C)NC(=O)[C@H](CCC(=O)O)NC(=O)[C@H](CCC(=O)O)NC(=O)[C@H](CC(C)C)NC(=O)[C@H](CCCCN)NC(=O)[C@H](CCCCN)NC(=O)[C@H](CCSC)NC(=O)[C@H](CCC(=O)O)NC(=O)[C@H](Cc1ccc(O)cc1)NC(=O)[C@H](CCC(=O)O)NC(=O)[C@H](CC(C)C)NC(=O)[C@H](CC(=O)O)NC(=O)[C@H](CC(C)C)NC(=O)[C@H](Cc1ccccc1)NC(=O)[C@H](Cc1ccccc1)NC(=O)[C@@H](NC(=O)[C@H](CC(N)=O)NC(=O)[C@@H](NC(=O)[C@H](CCC(N)=O)NC(=O)[C@H](CC(=O)O)NC(=O)[C@H](CC(C)C)NC(=O)[C@@H](N)CO)[C@@H](C)CC)C(C)C)C(=O)N[C@@H](CCCCN)C(=O)N[C@@H](CCCCN)C(=O)N[C@@H](CC(C)C)C(=O)N[C@@H](CCC(=O)O)C(=O)N[C@@H](CCC(=O)O)C(=O)N[C@@H](C)C(=O)N[C@@H](Cc1ccc(O)cc1)C(=O)N[C@H](C(=O)N[C@@H](CC(=O)O)C(=O)N[C@@H](CC(C)C)C(=O)N[C@@H](CCCCN)C(=O)N[C@@H](CCC(=O)O)C(=O)N[C@@H](CC(C)C)C(=O)O)[C@@H](C)CC	Spike glycoprotein (Severe acute respiratory syndrome coronavirus, UniProt P59594)	cell-cell fusion, inhibitor, luciferase fusion	293T donor, Huh-7 target	16 h, 37 °C, dual mutations	–	IC50	10.8 nM
COc1cc(Cc2cnc(N)nc2N)cc(/C=C/C(=O)N2N=Cc3ccccc3C2c2ccccc2)c1OC (racemic)	dfrA	inhibitor	–	–	–	Ki	5 nM
CCN(CC)Cc1onc(-c2cccc(Cl)c2)c1-c1ccnc(N[C@@H]2CCN(C(=O)c3ccn(C)n3)C2)n1	PKG	kinase activity, inhibitor, IMAP	–	–	–	Ki	0.9 ± 0.5 nM
CC[C@H](C)[C@@H]1NC(=O)[C@H](CCCNC(=N)N)NC(=O)[C@@H](N)CSSC[C@@H]2NC(=O)[C@@H]3CSSC[C@@H](C(=O)N[C@H](C(=O)O)C(C)C)NC(=O)[C@H](CCCCN)NC(=O)[C@H](CC(N)=O)NC(=O)[C@H](Cc4ccccc4)NC(=O)[C@H](CCCNC(=N)N)NC(=O)[C@H](CC(N)=O)NC(=O)[C@H](CSSC[C@H](NC(=O)[C@H](CCCCN)NC(=O)[C@H](CCC(N)=O)NC(=O)[C@H](CC(N)=O)NC(=O)[C@@H]4C[C@@H](O)CN4C1=O)C(=O)N[C@@H](Cc1ccccc1)C(=O)N[C@@H](CCC(N)=O)C(=O)N[C@@H](Cc1c[nH]cn1)C(=O)N[C@@H](CC(C)C)C(=O)N[C@@H](CC(=O)O)C(=O)N[C@@H](CC(=O)O)C(=O)N3)NC(=O)[C@H](CCCCN)NC(=O)[C@H](CCCNC(=N)N)NC(=O)[C@H](CO)NC2=O	Sh (Drosophila melanogaster, UniProt P08510, del6-46)	potassium current, two-electrode voltage clamp	Xenopus oocytes	external K 100 mM, zero voltage	–	Kd	610 ± 100 nM
CCC1(C2OC(C3OC(O)(CO)C(C)CC3C)CC2C)CCC(C2(C)CCC3(CC(O)C(C)C(C(C)C(OC)C(C)C(=O)O)O3)O2)O1 (stereo not drawn)	N/L (Lymphocytic choriomeningitis virus, UniProt P09992+P14240)	viral replication, Gaussia luciferase reporter	–	–	–	EC50	190 nM
COc1cc(Cc2cnc(N)nc2N)cc(/C=C/C(=O)N2N=Cc3ccccc3C2C=C(C)C)c1OC (racemic)	dfrA	inhibitor	–	–	–	Ki	8.2 nM
O=C(NCc1ccccc1)C(N[C@@H]1CCSC1=O)C1CC1 (single isomer, unassigned)	Thiosulfate sulfurtransferase (TST, Homo sapiens, UniProt Q16762)	enzyme activity, activator, cyanide to thiocyanate conversion	–	–	–	EC50	2300 ± 4200 nM
Cc1ccc(OCCN(C)C)cc1C(=O)N[C@H](C)c1cc(-c2cnn(CCO)c2)cc(-c2cnn(C(F)F)c2)c1	Replicase polyprotein 1ab, papain-like protease (rep, Severe acute respiratory syndrome coronavirus 2, UniProt P0DTD1)	protease activity, inhibitor	FlipGFP reporter cells	–	–	EC50	> 10000 nM
COC(=O)CN1CN(c2ccccc2)C2(CCN(Cc3cccc4ccccc34)CC2)C1=O	OPRL1	GIRK channel activation, agonist	AtT20 expressing OPRL1	180 s	–	EC50	56 ± 9.3 nM
CCOP(=O)(OCC)ON1C(=O)c2cccc3cccc(c23)C1=O	Butyrylcholinesterase (Bche, Rattus norvegicus, UniProt Q9JKC1)	inhibitor	rat, postnatal day 1, rat serum	–	–	IC50	5 nM
CS(=O)(=O)Cc1onc(-c2cccc(Cl)c2)c1-c1ccnc(N[C@@H]2CCN(C(=O)c3nccs3)C2)n1	PKG	kinase activity, inhibitor, IMAP	–	–	–	Ki	0.6 ± 0.06 nM

For quick reference, copied from above:
Structure (SMILES)	tested on	assay	test system	conditions	how to read	quantity	result
CN1C(=O)CCc2cc(C(=O)NCC=CS(C)(=O)=O)ccc21	Polyprotein P1234, nsP2 protease (Chikungunya virus, UniProt Q5XXP4)	time-dependent inhibition	–	–	–	Ki	2200 ± 400 nM
CNC(=O)CC1C(=O)N(C2CCN([C@H]3CC[C@@H](C(C)C)CC3)CC2)c2ccccc21 (stereo partly drawn)	OPRL1	binding	–	–	–	Ki	1.13 nM
